Assay results pooled from the literature.
Lines come from different studies, so protocols differ. ± marks the error that the study gave.
Chain of UniProt O60656 (whole entry, looked up): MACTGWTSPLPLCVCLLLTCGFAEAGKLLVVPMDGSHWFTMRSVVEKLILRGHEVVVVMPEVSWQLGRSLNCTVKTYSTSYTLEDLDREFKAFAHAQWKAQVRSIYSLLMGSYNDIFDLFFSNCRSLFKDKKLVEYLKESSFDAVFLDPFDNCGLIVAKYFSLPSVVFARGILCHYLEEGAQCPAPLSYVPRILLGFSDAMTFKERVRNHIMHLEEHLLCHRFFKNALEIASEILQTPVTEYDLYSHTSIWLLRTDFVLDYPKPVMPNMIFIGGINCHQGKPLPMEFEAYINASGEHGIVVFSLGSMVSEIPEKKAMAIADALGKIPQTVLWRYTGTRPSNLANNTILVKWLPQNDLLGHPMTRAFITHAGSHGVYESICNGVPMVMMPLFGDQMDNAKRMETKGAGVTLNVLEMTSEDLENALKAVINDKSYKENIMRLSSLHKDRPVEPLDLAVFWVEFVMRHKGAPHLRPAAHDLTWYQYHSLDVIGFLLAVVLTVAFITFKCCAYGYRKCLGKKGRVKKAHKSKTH

The Km of `UGT1A9 (Homo sapiens, UniProt O60656)` is reported as 0.32 µM (COc1cc(-c2oc3cc(O)cc(O)c3c(=O)c2O)ccc1O; steady-state kinetics; pH 7.4, 37 °C).
The pKa of `rnpA F107W (Bacillus subtilis)` is reported as 5.95 (NMR, refers to: His22; 25 °C, 0.15 M NaCl, sulfate-bound folded state, numbering of the source, together with: 20 mM Na2SO4).
The AUC(0-t) of `insulin aspart` is reported as 6.97 ng·h/mL (UPLC-MS/MS; human, healthy subjects, plasma; subcutaneous, 0.2 U/kg single dose, 4 h, euglycaemic clamp).
`teriparatide` has a t1/2 of 42.1 ± 17.2 min (ELISA; healthy women; sc, 20 µg single dose, reference product, arithmetic mean).
Under “time to maximal fluorescence”, CC[C@H](C)[C@H](NC(=O)[C@H](CC(C)C)NC(=O)[C@H](CCCNC(=N)N)NC(C)=O)C(=O)N[C@@H](CCC(=O)O)C(=O)N[C@@H](CC(=O)O)C(=O)N[C@H](C(=O)N[C@H]1CSSC[C@@H](C(=O)N[C@@H](CC(C)C)C(=O)N[C@@H](Cc2c[nH]c3ccccc23)C(=O)N[C@@H](CCC(=O)O)C(=O)N[C@@H](CC(=O)O)C(=O)N[C@@H](CC(=O)O)C(=O)N[C@@H](CCCCNC(=O)CCCCCN2C(=CC=C3CCCC(C=CC4=[N+](CCCCS(=O)(=O)O)c5ccc(S(=O)(=O)[O-])cc5C4(C)C)=C3Oc3ccc(S(=O)(=O)O)cc3)C(C)(C)c3cc(S(=O)(=O)O)ccc32)C(N)=O)NC(=O)CNC(=O)[C@H](Cc2c[nH]c3ccccc23)NC(=O)[C@H](CCCNC(=N)N)NC(=O)[C@@H]2CCCN2C(=O)[C@H](CC(C)C)NC1=O)[C@@H](C)CC is recorded as no more than 2.5 min (NIR fluorescence imaging; C57BL/6 mouse, inguinal lymph node; intradermal, 20 µL, 100 µM).
With `insulin` the Cmax was 88 ± 22.3 µg/mL (HPLC-UV; diabetic rat, plasma; subcutaneous, 4.0 IU/kg).
With COc1cccc2c1C(=O)c1c(O)c3c(c(O)c1C2=O)C[C@@](O)(C(=O)CO)C[C@@H]3O[C@H]1C[C@H](NC(=O)[C@@H]2CCCN2C(=O)CN)[C@H](O)[C@H](C)O1 the AUC was 2.3 µM·h (mouse, E0771 tumour-bearing, heart; intravenous, 92 µmol/kg PhAc-ALGP-Dox).
With `Insulin human` the concentration was 141 ± 82.6 pg/mg tissue (ELISA; rat, hippocampus; intranasal, 20 µg per nostril, 15 min).
With `insulin degludec` the AUC(0-inf) was 0.112 µM·h (human end-stage renal disease, serum; subcutaneous, 0.4 U/kg, dosed after hemodialysis).
For CC(C)[C@H](NC(=O)[C@@H]1CCCN1C(=O)[C@H](CCCNC(=N)N)NC(=O)[C@H](CS)NC(=O)[C@H](Cc1c[nH]c2ccccc12)NC(=O)[C@H](CCCNC(=N)N)NC(=O)[C@@H](Cc1ccccc1)NC(=O)[C@H](Cc1c[nH]cn1)NC(=O)[C@H](CCC(=O)O)NC(=O)[C@H](CS)NC(=O)[C@H](CS)NC(=O)[C@H](CCCCN)NC(=O)[C@@H]1CC(=O)N[C@@H](CCCNC(=N)N)C(=O)N[C@@H](C)C(=O)N[C@@H](CC(=O)O)C(=O)N[C@H](Cc2ccc(O)cc2)C(=O)N1)C(N)=O [technetium-99m labelled], the tissue uptake was 93 ± 21.7 %ID/g (C57 mice, kidneys; intravenous, 0.037 MBq, 2 h).

A few entries again:
With `Insulin human` the concentration was 141 ± 82.6 pg/mg tissue (ELISA; rat, hippocampus; intranasal, 20 µg per nostril, 15 min).
